Literature values as cited in several papers.
Each line is one published result; not all experiments were run side by side. ± gives the spread as reported.
Gastrin-releasing peptide receptor: Gastrin-releasing peptide receptor (Rattus norvegicus, UniProt P52500)
Genome polyprotein NS3 helicase domain: Genome polyprotein, NS3 helicase domain (Hepatitis C virus genotype 1b, UniProt Q9WMX2)

With `COC(=O)[C@H](CC(C)C)NC(=O)[C@H](Cc1c[nH]cn1)NC(=O)[C@@H](C)NC(=O)[C@@H](NC(=O)[C@H](C)NC(=O)[C@H](Cc1c[nH]c2ccccc12)NC(=O)[C@H](CCC(N)=O)NC(=O)[C@H](N)Cc1c(F)c(F)c(F)c(F)c1F)C(C)C` the IC50 was 5.5 ± 1.4 nM (Gastrin-releasing peptide receptor).
The IC50 of `COc1cc(/C=C/C(=O)CC(=O)/C=C/c2ccc(O)c(OC)c2)ccc1O` is reported as 1000 to 2000 nM (ABCG2 (Homo sapiens, UniProt Q9UNQ0); transport activity, inhibitor; cells overexpressing ABCG2).
The IC50 of `O=C(Nc1ccc2nc(SCc3ccc(Cl)cc3)sc2c1)c1ccccc1C(=O)N1CCOCC1` is reported as 550 nM (GPR35 (Homo sapiens, UniProt Q9HC97); antagonist).
`Cc1ccc2nc(-c3ccc4nc(-c5ccc(NC(=O)c6ccc(Br)cc6)cc5)sc4c3)sc2c1S(=O)(=O)O` has an IC50 of 3800 ± 400 nM (Genome polyprotein NS3 helicase domain; RNA unwinding).
The IC50 of `COc1c(O[C@@H]2O[C@H](CO)[C@@H](O)[C@H](O)[C@H]2O)cc2c(c1OC)-c1ccc(SC)c(=O)cc1[C@@H](NC(C)=O)CC2` is reported as 200 nM (GABA-A receptor α1β2γ2L; GABA-evoked chloride current, competitive antagonist).
For `CCNc1nc(Cl)nc(NC(C)C)n1`, the IC50 was 20700 nM (estrogen receptor, alligator; binding; adult female oviduct tissue).
`O=C1NC(=O)[C@@H](c2cn3c4c(cccc24)CCC3)[C@@H]1c1c[nH]c2ccccc12` gave an IC50 of 20 to 50 nM (c-Met receptor tyrosine kinase; kinase activity, ATP-independent inhibitor).
`Cc1ccc2nc(-c3ccc4nc(-c5ccc(NC(=O)c6ccc(C(C)(C)C)cc6)cc5)sc4c3)sc2c1S(=O)(=O)O` gave an IC50 of 8800 ± 3000 nM (Genome polyprotein NS3 helicase domain; RNA unwinding).
`CO[C@@H]1[C@@H]2OP(=O)(O)OC[C@H]2O[C@H]1n1c(Sc2ccc(Cl)cc2)nc2c(N)ncnc21` — result for “Km or Ki”: 8570 nM (PDE1B; cyclic nucleotide hydrolysis, substrate or inhibitor, isothermal titration calorimetry).
The IC50 of `C[C@@H]1COCCN1c1nc(-c2cnc(N)cn2)nc2c1C[C@@H]1COCCN21` is reported as 94 ± 2.5 nM (Akt pSer473; phosphorylation, inhibitor; A2058).
For `COc1ccc(-c2ccc(-c3cn(C(=O)N4CCCCC4c4ccccc4)nn3)cc2)cc1` (stereo not drawn), the IC50 was roughly 10 nM (Abhd6 (Mus musculus, UniProt Q8R2Y0); competitive ABPP).
For `O=C1c2cccc3c2[C@H](CCC3)CN1[C@@H]1CN2CCC1CC2`, the AUC(0-inf) was 48.1 ng·h/mL (cancer patients, plasma; oral, dose not given, netupitant-palonosetron fixed combination, together with: cyclophosphamide 500-1000 mg/m^2 IV).
The IC50 of `Nc1scc2c(C(=O)O)nn(-c3ccc(Cl)cc3)c(=O)c12` is reported as 5000 ± 2150 nM (Microtubule-associated protein tau, K18 fragment (244-369) (MAPT, Homo sapiens, UniProt P10636, P618L); tau K18 fibrillization (ThT), inhibitor; tau 20 µM, together with: heparin).
For `C#Cc1nc2c(N)ncnc2n1[C@@H]1O[C@H](COP(=O)(O)OP(=O)(O)OC[C@H]2O[C@@H]([n+]3cc(N=[N+]=[N-])cc(C(=O)[O-])c3)[C@H](O)[C@@H]2O)[C@@H](O)[C@H]1OP(=O)(O)O`, the IC50 was roughly 100 nM (NAADP receptor sea urchin; desensitization; sea urchin egg homogenate).
`Cc1ccc(Sc2cccc3[nH]c4nc(N)nc(N)c4c23)cc1` gave an IC50 of 10400 ± 1200 nM (EGFR (Homo sapiens, UniProt P00533); kinase activity, inhibitor).
`CC(C)C[C@H](NC(=O)[C@@H](CC(=O)NO)Cc1ccccc1)C(=O)O` gave an IC50 of 30 to 60 nM (thimet oligopeptidase; inhibitor; range reported for several peptidases).
`O=C(c1ccc(P(=O)(O)O)cc1O)c1[nH]c(Cl)c(Cl)c1-n1c(C(=O)c2ccc(P(=O)(O)O)cc2O)cc(Cl)c1Cl` gave an IC50 of 10900 ± 3100 nM (Induced myeloid leukemia cell differentiation protein Mcl-1, with Bim (MCL1, Homo sapiens, UniProt Q07820); inhibitor, ELISA).
With `Nc1nc(N)c2c(n1)[nH]c1cccc(Sc3ccccc3)c12` the IC50 was 2800 ± 420 nM (PDGFRB (Homo sapiens, UniProt P09619); kinase activity, inhibitor).
With `O=C(O)c1ccc(S(=O)(=O)N(Cc2ccc(OC(F)(F)F)cc2)c2ncc(C(F)(F)F)cc2Cl)cc1` the IC50 was roughly 8 nM (TRPM8 (Homo sapiens, UniProt Q7Z2W7); calcium influx, antagonist; HEK (hTRPM8); together with: 30 µM menthol).
`Nc1ncnc2nc[nH]c12` gave an IC50 of 18 nM (Mas-related G-protein coupled receptor member A (Mrgpra, Rattus norvegicus, UniProt Q7TN49); binding; rat).
For `N#Cc1cnc2ncncc2c1`, the IC50 was 11.4 nM (PIM1 (Homo sapiens, UniProt P11309); kinase activity, inhibitor).
For `curcumin`, the IC50 was 9080 nM (α-glucosidase; concentration not given).
`Cn1cncc1[C@@](N)(c1ccc(Cl)cc1)c1ccc2c(c1)c(-c1cccc(Cl)c1)cc(=O)n2C` has an IC50 of roughly 1 nM (Protein farnesyltransferase (Rattus norvegicus, UniProt Q02293+Q04631); mammalian enzyme).
The IC50 of `CC(C)=CCC/C(C)=C/COc1c2ccoc2cc2oc(=O)ccc12` is reported as 120 nM (ethoxyresorufin O-dealkylase, mouse; enzyme activity, inhibitor; liver).
For `O=C(O)c1cc([C@H]2CCN[C@@H]2C(=O)O)ccc1Br`, the IC50 was greater than 100000 nM (AMPA receptor (rat); binding, [3H]AMPA displacement; rat synaptosomes).
With `CC[C@H](C)[C@H](NC(=O)[C@H](CCCCN)NC(=O)[C@H](Cc1c[nH]cn1)NC(=O)[C@@H](N)CCCNC(=N)N)C(=O)N[C@@H](CC(C)C)C(=O)N[C@@H](Cc1c[nH]cn1)C(=O)N[C@@H](CCCNC(=N)N)C(=O)N[C@@H](CC(C)C)C(=O)N[C@@H](CC(C)C)C(=O)N[C@@H](CCC(N)=O)C(=O)N[C@@H](CCC(=O)O)C(=O)NCC(=O)N[C@@H](CO)C(=O)O` the ΔG was -8.5 kcal/mol (Nuclear receptor subfamily 1 group I member 3, with RXR (Mus musculus, UniProt O35627); binding, isothermal titration calorimetry; pH 7.2, 25°C, together with: TCPOBOP, fourfold excess).
`CC(Cc1c[nH]c2ccccc12)(NC(=O)Nc1ccc([N+](=O)[O-])cc1)C(=O)NCC1(c2ccccn2)CCCCC1` (stereo not drawn) has an IC50 of 1300 ± 190 nM (Gastrin-releasing peptide receptor; binding; literature species comparison).
`N=C(N)c1ccccc1` has an IC50 of 196000 nM (Degenerin mec-4 (mec-4, Caenorhabditis elegans, UniProt P24612, A713T); concentration not given).
For `NCc1ccc(OCc2cccc(F)c2)cc1`, the IC50 was 31000 nM (Sodium channel protein type 9 subunit alpha (Mus musculus, UniProt Q62205); inactivated state ion current, inhibitor; CAD).
With `C/C(=N\Cc1ccccc1)c1c(O)c2ccccc2oc1=O` the IC50 was 1000 nM (Myosin-4 (MYH4, Oryctolagus cuniculus, UniProt Q28641); skeletal myosin activity, inhibitor).
The IC50 of `Nc1nc2c(ncn2[C@@H]2O[C@H](COP(=O)(O)OP(=O)(O)OP(=O)(O)O)[C@@H](O)[C@H]2O)c(=O)[nH]1` is reported as 3100 nM (GLUD1 (Homo sapiens, UniProt P00367, S501P); enzyme activity, allosteric inhibitor; mutant enzyme, reductive amination).
`C[C@@H](O)CCCCn1c(=O)c2c(ncn2C)n(C)c1=O` gave an IC50 of 600 nM (lysophosphatidic acid acyltransferase; inhibitor; P388; together with: lipopolysaccharide).
For `O=C1OC2(c3cc(I)c(O)c(I)c3Oc3c2cc(I)c(O)c3I)c2c(Cl)c(Cl)c(Cl)c(Cl)c21`, the IC50 was 300 nM (Protein translocase subunit SecA (secA, Pseudomonas aeruginosa, UniProt Q9LCT3); channel activity, inhibitor; Xenopus oocytes).
`Nc1ncnc2c1nc(Br)n2[C@@H]1O[C@@H]2COP(=O)(O)O[C@H]2[C@H]1O` — result for “Km or Ki”: 38700 nM (PDE2A; cyclic nucleotide hydrolysis, substrate or inhibitor, isothermal titration calorimetry).
`C/C=C1\NC(=O)[C@H]2CSSCC/C=C/[C@H](CC(=O)N[C@H](C(C)C)C(=O)N2)OC(=O)[C@H](C(C)C)NC1=O` gave an IC50 of 0.9 nM (histone deacetylase, Plasmodium falciparum; enzyme activity, inhibitor; nuclear extract).
For `CCN(CC)C(=S)SSC(=S)N(CC)CC`, the IC50 was roughly 1000 nM (dopamine β-hydroxylase; inhibitor).

Repeated from above:
`O=C1NC(=O)[C@@H](c2cn3c4c(cccc24)CCC3)[C@@H]1c1c[nH]c2ccccc12` gave an IC50 of 20 to 50 nM (c-Met receptor tyrosine kinase; kinase activity, ATP-independent inhibitor).
`Cc1ccc2nc(-c3ccc4nc(-c5ccc(NC(=O)c6ccc(C(C)(C)C)cc6)cc5)sc4c3)sc2c1S(=O)(=O)O` gave an IC50 of 8800 ± 3000 nM (Genome polyprotein NS3 helicase domain; RNA unwinding).
`CO[C@@H]1[C@@H]2OP(=O)(O)OC[C@H]2O[C@H]1n1c(Sc2ccc(Cl)cc2)nc2c(N)ncnc21` — result for “Km or Ki”: 8570 nM (PDE1B; cyclic nucleotide hydrolysis, substrate or inhibitor, isothermal titration calorimetry).
